Assay results of several laboratories.
Parts stem from different laboratories: compare values within a part only. Positions count from the first letter of the parent shown.

Series 1 — cell line: yeast with cyclin F-Cln2 chimera; observed: cell growth; action: binder; technique: competitive growth deep sequencing; form: peptide; tested at: concentration not given; notes: peptide tiling library; reading: direction not given
Sequence	growth enrichment score
PARRRLRLSVDEVSSP	4.24
DTERAHSTLDEDLERW	-0.362
GQLVIPLDELTLDTSF	0.833
IPDRSTKPVVFSPT	-0.0998
RKLHFEDEVT	3.49
KPITLDTTDFQESFVT	-0.105
LRRQLSFSED	2.08
AIRKMREDRWAVIAKM	0.937
SCCKRKLVVGNGPEGP	1.01
PLRKAKRARLCSSSSS	0.737
EPRNLLSLFEDTLDPT	3.05

Series 2 — technique: DHFR PCA, deep sequencing; sample: yeast; with: (+)-ABA 58 µM; relative to: wild-type fitted maximum; reading: higher = stronger binding
Target: ABI1, truncated, D143A, DHFR fusion (Arabidopsis thaliana)
Notes: methotrexate growth selection, single substitutions
Starting sequence: PYL1, truncated, DHFR fusion (Arabidopsis thaliana); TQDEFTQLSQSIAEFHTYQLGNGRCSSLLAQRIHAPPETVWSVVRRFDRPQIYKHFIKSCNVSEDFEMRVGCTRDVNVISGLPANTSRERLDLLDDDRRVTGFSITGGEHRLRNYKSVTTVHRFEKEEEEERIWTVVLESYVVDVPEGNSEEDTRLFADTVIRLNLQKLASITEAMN
Variant	relative binding score [%]
V40S	6.11
H34C	97.7
T17W	40
P146I	14.8
R113T	87.3
A35K	2.31
S11M	82.2
E67V	88.2
V137F	7.21

Series 3 — technique: universal PBM; form: double-stranded DNA, one strand shown; sample: in vitro; tested at: 600 nM; reading: higher = stronger binding
Target: Sal-like protein 4, full length isoform A (SALL4, Homo sapiens, UniProt Q9UJQ4, residues 1-1053)
Chain of UniProt Q9UJQ4 (whole entry, looked up): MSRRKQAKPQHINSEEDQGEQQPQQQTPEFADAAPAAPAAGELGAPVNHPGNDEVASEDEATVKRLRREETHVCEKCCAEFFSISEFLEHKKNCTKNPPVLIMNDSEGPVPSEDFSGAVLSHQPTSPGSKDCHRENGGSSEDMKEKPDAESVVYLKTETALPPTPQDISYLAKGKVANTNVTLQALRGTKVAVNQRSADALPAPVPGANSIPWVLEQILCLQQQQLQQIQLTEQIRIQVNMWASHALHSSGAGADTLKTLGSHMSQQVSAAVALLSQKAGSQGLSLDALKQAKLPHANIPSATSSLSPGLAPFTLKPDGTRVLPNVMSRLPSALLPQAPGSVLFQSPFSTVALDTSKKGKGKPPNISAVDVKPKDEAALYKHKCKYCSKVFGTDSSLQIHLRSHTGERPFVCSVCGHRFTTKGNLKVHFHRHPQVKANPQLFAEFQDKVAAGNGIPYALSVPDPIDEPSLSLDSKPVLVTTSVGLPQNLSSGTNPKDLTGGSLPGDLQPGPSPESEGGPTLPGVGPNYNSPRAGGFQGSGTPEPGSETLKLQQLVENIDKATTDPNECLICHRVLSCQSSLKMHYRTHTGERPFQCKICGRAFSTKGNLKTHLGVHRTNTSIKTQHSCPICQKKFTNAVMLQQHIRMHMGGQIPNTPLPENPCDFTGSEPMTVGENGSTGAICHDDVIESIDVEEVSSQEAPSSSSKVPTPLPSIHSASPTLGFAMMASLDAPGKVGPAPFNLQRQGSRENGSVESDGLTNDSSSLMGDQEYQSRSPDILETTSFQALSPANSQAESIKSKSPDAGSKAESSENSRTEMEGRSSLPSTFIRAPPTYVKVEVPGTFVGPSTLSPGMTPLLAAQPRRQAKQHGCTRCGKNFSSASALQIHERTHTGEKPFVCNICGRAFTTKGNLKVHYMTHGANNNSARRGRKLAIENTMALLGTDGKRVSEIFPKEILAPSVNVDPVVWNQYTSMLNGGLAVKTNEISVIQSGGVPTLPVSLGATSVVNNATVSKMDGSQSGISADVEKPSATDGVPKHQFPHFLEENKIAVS
Notes: 8-mer, flanks averaged, mean of replicates
Strand	E-score
GCCGCCAC	-0.356
AACTGTGA	0.0415
CGGTACCA	-0.154
GACCTCAC	-0.23
AAGCCGAA	0.0145
ATAAAGAA	0.291
ACGGGACC	-0.318
ACCCTGAG	-0.258
ATAGCCAG	-0.0783
AGAAATAA	0.328
GGCAGAAA	0.0619
GTTTTCGA	-0.0637
ACGCCAAC	0.0222
CAGGTAGA	0.00789
AACTTCGC	-0.102
GAATCAGC	-0.182
CTCTTCAA	-0.0135
ACTAGGAA	0.0462
CTCCAAGC	-0.191
CCAACCTA	-0.0371
ATCTGTAG	0.0425
TCTGGGAA	-0.0744
AGAGCTTG	-0.0723
GGGATCTA	-0.127
ACTCGCTA	-0.171

Series 4 — technique: RNA Bind-n-Seq; form: RNA; sample: in vitro; tested at: 200 nM; notes: whole 134-nt RNA, ends assumed; with: 150 mM KCl; relative to: input library; reading: higher = stronger binding
Target: Ras GTPase-activating protein-binding protein 1, full length (G3BP1, Homo sapiens, UniProt Q13283)
Chain of UniProt Q13283 (whole entry, looked up): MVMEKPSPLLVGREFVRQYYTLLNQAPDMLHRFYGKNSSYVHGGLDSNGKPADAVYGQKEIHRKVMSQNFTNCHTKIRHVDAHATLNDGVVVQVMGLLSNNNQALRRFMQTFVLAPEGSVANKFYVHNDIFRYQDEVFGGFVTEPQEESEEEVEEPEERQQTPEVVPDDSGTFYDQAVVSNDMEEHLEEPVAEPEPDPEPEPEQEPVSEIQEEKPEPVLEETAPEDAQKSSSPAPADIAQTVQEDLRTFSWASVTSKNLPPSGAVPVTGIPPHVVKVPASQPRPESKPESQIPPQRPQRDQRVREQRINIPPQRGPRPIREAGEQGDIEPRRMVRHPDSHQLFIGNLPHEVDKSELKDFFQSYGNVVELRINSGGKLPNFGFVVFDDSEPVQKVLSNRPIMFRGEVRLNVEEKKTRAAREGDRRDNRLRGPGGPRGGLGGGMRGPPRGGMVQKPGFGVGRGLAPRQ
Strand	log2 enrichment
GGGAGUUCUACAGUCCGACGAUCCAAGUCCUGUGCUACACAUCGUAUGUACCGAAUCGGAAAGGAAAAAGGAAAAAGGAAAGUAUUAUGUUACGCCGUUCGGAUCUGCACUUCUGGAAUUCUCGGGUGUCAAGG	-0.964
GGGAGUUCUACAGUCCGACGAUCUGGGAGACGAUCGCGAUGAACACGGUGCUGUCGCGGGCGAACUCACUGUUCGCCUUCUCGCUGAGCGUGAUGGCGGCGCUCACCUUCGGCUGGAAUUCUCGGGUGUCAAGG	-1.84
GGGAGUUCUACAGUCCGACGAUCAAGUCCUGUGCUACACAUCGUAUGUACCGAAUCGGAAAGGGGAAAGGGGAAAGGGGAAAGUAUUAUGUUACGCCGUUCGGAUCUGCACUUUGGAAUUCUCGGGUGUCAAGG	-0.0289
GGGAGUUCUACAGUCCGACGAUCUCCUGUGCUACACAUCGUAUGUACCGAAUCGGGGCCCCCGGGGCCCCCGGGCCCCCGGGAAAGUAUUAUGUUACGCCGUUCGGAUCUGCAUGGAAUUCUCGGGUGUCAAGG	-0.493
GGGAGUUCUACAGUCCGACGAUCUGGCCCUGGUGGCAUGCGGGGAGGAAGAGGUGGCCUCAUGGAUCGUGCUGGUCCCGGUGGAAUGUUCAGAGGUGGCCGUGGUGGAGACAGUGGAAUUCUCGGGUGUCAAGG	0.34
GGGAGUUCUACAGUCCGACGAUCAAGUCCUGUGCUACACAUCGUAUGUACCGAAUCGGGUUUUGGGUUUUGGUUUUGGGGAAAGUAUUAUGUUACGCCGUUCGGAUCUGCACUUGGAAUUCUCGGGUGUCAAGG	-0.574
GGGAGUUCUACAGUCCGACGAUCUCAAGUCCUGUGCUACACAUCGUAUGUACCGAAUCGGGUGGGAAAAAGGGAGGGAAAGUAUUAUGUUACGCCGUUCGGAUCUGCACUUCCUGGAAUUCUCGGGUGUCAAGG	1.07
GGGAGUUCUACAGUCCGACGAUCUCAAGUCCUGUGCUACACAUCGUAUGUACCGAAUCGGAGGAAAAAGGAAAAAGGAAAGUAUUAUGUUACGCCGUUCGGAUCUGCACUUCCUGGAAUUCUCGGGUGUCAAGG	-1.05
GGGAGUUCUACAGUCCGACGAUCCACAGACAACACGCACCCACACAGACACAGAGGGAAGAGGUUGGGAUGGGGACAGGGUGCACAGCAGGGCGGGGUAGGACCCCAGCCCCUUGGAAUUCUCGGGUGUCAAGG	1.82
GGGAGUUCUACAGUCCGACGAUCAGUCCUGUGCUACACAUCGUAUGUACCGAAUCGGGAAAAGGGAAAAGGGGAAAAGGGGAAAGUAUUAUGUUACGCCGUUCGGAUCUGCACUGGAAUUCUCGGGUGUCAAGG	-0.0068
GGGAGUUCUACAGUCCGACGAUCUCCUGUGCUACACAUCGUAUGUACCGAAUCGGGAAAAAAAGGGUUUUUUUGGGAAAGGGAAAGUAUUAUGUUACGCCGUUCGGAUCUGCAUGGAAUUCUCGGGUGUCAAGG	-0.523
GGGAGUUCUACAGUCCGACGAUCUGGCCCUGGUGGCAUGCGGGGAGGAAGAGGUGGCCUCAUGGAUCGCGGUGGUCCCGGUGGAAUGUUCAGAGGUGGCCGUGGUGGAGACAGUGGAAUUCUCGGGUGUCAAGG	0.241
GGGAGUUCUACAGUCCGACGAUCCCUGUGCUACACAUCGUAUGUACCGAAUCGGUUUUUUUGGGGUUUUUUUGGUUUUUUUGGAAAGUAUUAUGUUACGCCGUUCGGAUCUGCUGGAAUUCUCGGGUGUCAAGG	-0.741
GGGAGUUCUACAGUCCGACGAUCUCAAGUCCUGUGCUACACAUCGUAUGUACCGAAUCGGGAAAGGGUUUGGGAGGGAAAGUAUUAUGUUACGCCGUUCGGAUCUGCACUUCCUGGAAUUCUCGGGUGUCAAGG	1.16

Series 5 — technique: RNA Bind-n-Seq; form: RNA; sample: in vitro; tested at: 365 nM; relative to: no-protein control; reading: higher = stronger binding
Target: RNA binding protein fox-1 homolog 2, RRM domain, GST-SBP tag (RBFOX2, Homo sapiens, UniProt O43251-10, residues 100-194)
Notes: natural RNA segment, single round, ends assumed
Target sequence (chain): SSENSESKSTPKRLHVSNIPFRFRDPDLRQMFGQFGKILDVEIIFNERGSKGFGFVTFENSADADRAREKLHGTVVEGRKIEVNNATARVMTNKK
Strand	RBNS enrichment (R)
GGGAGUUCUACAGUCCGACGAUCCUGGCCUUGGGAAACUCAUCCUACAGGGGAAGGCCAGUUUUUUUCCCUUCAAUUCCUCAAGUCUGGGUGGUGACAAGGUAGGGGCUAGGUACUGGACUACCACAGGUUUUUGGAAUUCUCGGGUGCCAA	0.874
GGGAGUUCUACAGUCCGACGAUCGUGAGUGUCUUACCCCUUUCCUAUACUUUCUUGUUAUCCAUAUCAUUCUUUUGUGAGUUUUGCAGCAGUCUUGAAUAAUACAGAUUAUAACUACUGAAAGGGGAACCUUCUGGAAUUCUCGGGUGCCAA	0.385
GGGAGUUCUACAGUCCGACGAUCCUGCUUCUGAGUUGCCCAGGAGACCACUGGCAGAUGUCCCGGCGAAGAGAAGAGACACAUUGUUGGAAGAAGCAGCCCAUGACAGCUCCCCUUCCUGGGACUCGCCCUCAUGGAAUUCUCGGGUGCCAA	0.506
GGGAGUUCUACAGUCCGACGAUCCUGCGAACUCUCAGGACUACCGUUACCAAGAGGUUAGGUGAAGUGGUUUAAACCAAACGGAACUCUUCAUCUUAAACUACACGUUGAAAAUCAACCCAAUAAUUCUGUAUUGGAAUUCUCGGGUGCCAA	0.298
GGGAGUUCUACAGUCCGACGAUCAUAUUAUCAUGUCAGACACCUUCAGCCACAGCACAAAGUUUUAAUGUCUUUAAGAAAAAGAAAUCAAUCUGCAGAAAUGUGAAGAUUUGCAAGCAGUGUAAACUGCAACUUGGAAUUCUCGGGUGCCAA	0.581
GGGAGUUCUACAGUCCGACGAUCCCACACUGUCCCUGGAGAUCCCUCCAGCCUAGCCCUGCUAUAGAUCUGCUCUAGACUGUGAAAUCAGCAUGUAUGUGAAAAAUCCCAGUCCUUGACCAUGUCUCCCACUCUGGAAUUCUCGGGUGCCAA	3.84
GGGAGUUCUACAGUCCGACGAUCUUUUCUUCAGUUGGUGUGUUUUUGGGAUGUCUUAUUUUUAGAUGGUUACACUGUUAGAACACUAUUUUCAGAAUCUGAAUGUAAUUUGUGUAAUAAAGUGUUUUCAGAGCUGGAAUUCUCGGGUGCCAA	0.752
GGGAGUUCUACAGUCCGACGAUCUUUUUCUGACUUUGCAGCUGAGUCUGGAGAAAAGUGGCAUGCCAGAGCGGGUCGGUGGGAAACAGGGUGAACUUUAGCUUCCAUCAACAGCUCUGGUAGCAAAACCAGUCUGGAAUUCUCGGGUGCCAA	0.425
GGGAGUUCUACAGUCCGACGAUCAGUGCAGUAAACGUUUGUACCCAAGUCCUCACCACCAGUCAUGAGUUGGCCUGUCACUUAAGUCAUUUCUCAACAAUGGCACUCACAAAGAGCUCCACAAUCAAGAUGGCUGGAAUUCUCGGGUGCCAA	0.379
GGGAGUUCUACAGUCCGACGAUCGCUCGGGCUGGUUAAUGACUUGCUCAGCGUCCCAUGGCCUAGCCGCCCGCCCGGUGCCUCCCCCUGCUCCUGCAUGGCGGGACGGGCAGCGCCUCCUGCGGCCCCUCCAGUGGAAUUCUCGGGUGCCAA	0.768
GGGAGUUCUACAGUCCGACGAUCGAAUCUGUCAUCUCAGGCAAUAAUGUGUAGGUGUCACCAUGAGUCACAUACAGUUCUUUUUAGGCAUGAGUGUGUAUUACUGAUCCAACAUCUUCAUUCAUUCACUGAGUUGGAAUUCUCGGGUGCCAA	0.329
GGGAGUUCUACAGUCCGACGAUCUCAAGAUUUUUUAUGUAUGUAUAAAUAAGUAUUUUGGUGUGCUACACAGCUUUUUCAAAUUACCAGUAAUUUGUCUUGUUUCUAAGGAGUGGGCCAGUACUAACUUAACUUGGAAUUCUCGGGUGCCAA	0.444

Series 6 — technique: RNA Bind-n-Seq; form: RNA; sample: in vitro; tested at: 90 pmol; notes: 4-mer, random 30-nt RNA, single round; relative to: input library; reading: higher = stronger binding
Target: ATP-dependent RNA helicase DDX3X, helicase core (DDX3X, Homo sapiens, UniProt O00571, residues 132-607)
Chain of UniProt O00571 (132-607, looked up): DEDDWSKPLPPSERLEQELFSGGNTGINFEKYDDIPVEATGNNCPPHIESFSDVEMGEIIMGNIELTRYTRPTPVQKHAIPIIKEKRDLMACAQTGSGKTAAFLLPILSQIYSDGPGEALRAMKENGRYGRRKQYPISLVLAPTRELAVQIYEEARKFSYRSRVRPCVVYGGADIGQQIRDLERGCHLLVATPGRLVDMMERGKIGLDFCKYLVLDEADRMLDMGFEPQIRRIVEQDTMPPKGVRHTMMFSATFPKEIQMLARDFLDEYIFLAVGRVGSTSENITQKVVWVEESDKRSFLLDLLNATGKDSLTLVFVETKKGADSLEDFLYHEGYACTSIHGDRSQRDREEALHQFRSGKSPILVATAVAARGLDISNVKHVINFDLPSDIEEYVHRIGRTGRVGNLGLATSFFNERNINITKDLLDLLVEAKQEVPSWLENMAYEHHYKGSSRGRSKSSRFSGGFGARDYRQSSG
With: 3 µM iPr-DMDA-PatA, 2 mM ADP, 2 mM phosphate
Strand	4-mer enrichment [fold]
GUGU	0.988
CAAU	1.04
AACU	1.12
AUUC	1.01
GCUG	0.7
UAGG	1.03
UGGC	0.683
AGCU	0.86
UCCC	1.2
UCGC	0.796
UAUU	1.15

A few entries again (series 3):
Strand	E-score
ATAGCCAG	-0.0783
AGAAATAA	0.328
GGCAGAAA	0.0619
GTTTTCGA	-0.0637
ACGCCAAC	0.0222
CAGGTAGA	0.00789
AACTTCGC	-0.102
GAATCAGC	-0.182
CTCTTCAA	-0.0135
ACTAGGAA	0.0462
CTCCAAGC	-0.191
CCAACCTA	-0.0371
ATCTGTAG	0.0425
